Experimental data gathered from unrelated publications.
A part holds a random share of what one study measured. Several values in a cell are separate wells, animals, samples, runs or records.
UniProt P29320, sequence (whole entry, looked up): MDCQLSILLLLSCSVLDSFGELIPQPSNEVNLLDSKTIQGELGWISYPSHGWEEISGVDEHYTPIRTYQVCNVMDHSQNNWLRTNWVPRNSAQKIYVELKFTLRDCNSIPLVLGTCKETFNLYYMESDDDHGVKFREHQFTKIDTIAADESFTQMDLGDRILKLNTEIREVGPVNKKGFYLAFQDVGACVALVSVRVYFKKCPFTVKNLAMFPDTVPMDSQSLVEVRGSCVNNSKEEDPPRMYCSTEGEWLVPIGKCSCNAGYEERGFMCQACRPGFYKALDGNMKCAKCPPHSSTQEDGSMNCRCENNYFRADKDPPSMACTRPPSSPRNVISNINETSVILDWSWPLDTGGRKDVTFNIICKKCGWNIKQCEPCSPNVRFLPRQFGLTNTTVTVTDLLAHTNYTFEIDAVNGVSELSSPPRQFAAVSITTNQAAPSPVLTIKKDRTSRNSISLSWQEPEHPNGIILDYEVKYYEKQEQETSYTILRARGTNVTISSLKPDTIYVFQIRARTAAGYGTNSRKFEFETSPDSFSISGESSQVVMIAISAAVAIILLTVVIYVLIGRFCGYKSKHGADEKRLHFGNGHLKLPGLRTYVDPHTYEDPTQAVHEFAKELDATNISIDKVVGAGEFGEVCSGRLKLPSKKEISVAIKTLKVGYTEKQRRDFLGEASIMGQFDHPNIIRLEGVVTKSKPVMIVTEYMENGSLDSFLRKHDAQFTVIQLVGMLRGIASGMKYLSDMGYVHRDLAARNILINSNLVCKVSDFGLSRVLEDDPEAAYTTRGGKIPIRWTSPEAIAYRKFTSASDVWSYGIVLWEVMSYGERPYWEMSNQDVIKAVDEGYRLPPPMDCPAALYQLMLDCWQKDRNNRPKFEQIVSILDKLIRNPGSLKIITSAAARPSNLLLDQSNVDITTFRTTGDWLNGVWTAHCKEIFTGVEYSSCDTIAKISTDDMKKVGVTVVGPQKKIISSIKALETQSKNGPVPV
UniProt P49336, sequence (whole entry, looked up): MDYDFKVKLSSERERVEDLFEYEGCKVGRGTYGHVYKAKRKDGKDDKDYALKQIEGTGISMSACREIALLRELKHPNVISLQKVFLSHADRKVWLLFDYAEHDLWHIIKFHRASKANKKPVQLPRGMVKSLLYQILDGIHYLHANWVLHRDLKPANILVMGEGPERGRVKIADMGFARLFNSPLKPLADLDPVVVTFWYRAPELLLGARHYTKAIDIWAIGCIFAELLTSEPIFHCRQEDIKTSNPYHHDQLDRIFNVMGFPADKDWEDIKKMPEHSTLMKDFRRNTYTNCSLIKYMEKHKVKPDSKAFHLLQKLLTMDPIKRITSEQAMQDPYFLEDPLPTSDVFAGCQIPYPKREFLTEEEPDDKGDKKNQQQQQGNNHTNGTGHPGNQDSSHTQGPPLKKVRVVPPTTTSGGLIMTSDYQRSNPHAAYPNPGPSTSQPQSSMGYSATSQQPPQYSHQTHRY
UniProt P37173, sequence (whole entry, looked up): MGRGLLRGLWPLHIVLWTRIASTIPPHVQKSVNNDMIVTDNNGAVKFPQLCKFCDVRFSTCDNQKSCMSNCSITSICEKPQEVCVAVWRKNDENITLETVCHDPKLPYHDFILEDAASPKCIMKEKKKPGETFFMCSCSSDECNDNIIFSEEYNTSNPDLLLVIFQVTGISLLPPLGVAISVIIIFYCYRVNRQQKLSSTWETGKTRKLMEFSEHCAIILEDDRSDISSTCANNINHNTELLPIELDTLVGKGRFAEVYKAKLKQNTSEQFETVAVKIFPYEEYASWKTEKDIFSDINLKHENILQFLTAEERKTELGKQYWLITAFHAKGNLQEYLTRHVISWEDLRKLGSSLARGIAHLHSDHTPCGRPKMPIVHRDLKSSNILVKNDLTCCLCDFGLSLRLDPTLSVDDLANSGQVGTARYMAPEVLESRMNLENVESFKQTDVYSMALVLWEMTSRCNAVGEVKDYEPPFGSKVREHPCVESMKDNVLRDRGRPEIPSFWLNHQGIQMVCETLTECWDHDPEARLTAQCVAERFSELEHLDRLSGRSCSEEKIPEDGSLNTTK
UniProt P54646, sequence (whole entry, looked up): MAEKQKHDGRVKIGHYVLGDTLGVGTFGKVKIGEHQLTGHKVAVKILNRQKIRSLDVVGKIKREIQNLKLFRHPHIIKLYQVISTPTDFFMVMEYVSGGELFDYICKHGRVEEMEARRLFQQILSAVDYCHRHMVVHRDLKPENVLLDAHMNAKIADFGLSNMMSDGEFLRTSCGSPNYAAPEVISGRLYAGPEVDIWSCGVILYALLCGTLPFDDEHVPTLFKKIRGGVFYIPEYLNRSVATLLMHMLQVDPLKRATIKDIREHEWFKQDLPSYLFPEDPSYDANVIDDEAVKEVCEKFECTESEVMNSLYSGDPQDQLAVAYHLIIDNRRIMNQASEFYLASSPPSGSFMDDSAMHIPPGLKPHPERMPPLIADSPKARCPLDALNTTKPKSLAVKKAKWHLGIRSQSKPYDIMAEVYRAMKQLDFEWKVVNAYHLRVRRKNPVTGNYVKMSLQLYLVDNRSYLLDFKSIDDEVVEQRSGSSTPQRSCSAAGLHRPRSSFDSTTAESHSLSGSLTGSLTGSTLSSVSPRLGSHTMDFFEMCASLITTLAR
UniProt Q04771, sequence (whole entry, looked up): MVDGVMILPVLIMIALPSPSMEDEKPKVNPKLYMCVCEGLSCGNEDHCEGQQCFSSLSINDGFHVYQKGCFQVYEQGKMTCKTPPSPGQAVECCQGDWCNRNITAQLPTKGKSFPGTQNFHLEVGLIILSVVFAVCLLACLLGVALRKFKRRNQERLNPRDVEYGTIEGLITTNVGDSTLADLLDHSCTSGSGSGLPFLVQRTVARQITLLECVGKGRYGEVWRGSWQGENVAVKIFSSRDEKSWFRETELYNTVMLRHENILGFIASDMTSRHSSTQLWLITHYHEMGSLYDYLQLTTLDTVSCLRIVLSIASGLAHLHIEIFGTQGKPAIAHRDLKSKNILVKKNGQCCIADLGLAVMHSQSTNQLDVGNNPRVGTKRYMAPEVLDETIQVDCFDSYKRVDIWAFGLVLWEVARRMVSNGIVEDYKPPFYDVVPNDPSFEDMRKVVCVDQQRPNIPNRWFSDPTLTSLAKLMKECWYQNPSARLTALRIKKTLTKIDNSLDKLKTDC
UniProt P29597, sequence (whole entry, looked up): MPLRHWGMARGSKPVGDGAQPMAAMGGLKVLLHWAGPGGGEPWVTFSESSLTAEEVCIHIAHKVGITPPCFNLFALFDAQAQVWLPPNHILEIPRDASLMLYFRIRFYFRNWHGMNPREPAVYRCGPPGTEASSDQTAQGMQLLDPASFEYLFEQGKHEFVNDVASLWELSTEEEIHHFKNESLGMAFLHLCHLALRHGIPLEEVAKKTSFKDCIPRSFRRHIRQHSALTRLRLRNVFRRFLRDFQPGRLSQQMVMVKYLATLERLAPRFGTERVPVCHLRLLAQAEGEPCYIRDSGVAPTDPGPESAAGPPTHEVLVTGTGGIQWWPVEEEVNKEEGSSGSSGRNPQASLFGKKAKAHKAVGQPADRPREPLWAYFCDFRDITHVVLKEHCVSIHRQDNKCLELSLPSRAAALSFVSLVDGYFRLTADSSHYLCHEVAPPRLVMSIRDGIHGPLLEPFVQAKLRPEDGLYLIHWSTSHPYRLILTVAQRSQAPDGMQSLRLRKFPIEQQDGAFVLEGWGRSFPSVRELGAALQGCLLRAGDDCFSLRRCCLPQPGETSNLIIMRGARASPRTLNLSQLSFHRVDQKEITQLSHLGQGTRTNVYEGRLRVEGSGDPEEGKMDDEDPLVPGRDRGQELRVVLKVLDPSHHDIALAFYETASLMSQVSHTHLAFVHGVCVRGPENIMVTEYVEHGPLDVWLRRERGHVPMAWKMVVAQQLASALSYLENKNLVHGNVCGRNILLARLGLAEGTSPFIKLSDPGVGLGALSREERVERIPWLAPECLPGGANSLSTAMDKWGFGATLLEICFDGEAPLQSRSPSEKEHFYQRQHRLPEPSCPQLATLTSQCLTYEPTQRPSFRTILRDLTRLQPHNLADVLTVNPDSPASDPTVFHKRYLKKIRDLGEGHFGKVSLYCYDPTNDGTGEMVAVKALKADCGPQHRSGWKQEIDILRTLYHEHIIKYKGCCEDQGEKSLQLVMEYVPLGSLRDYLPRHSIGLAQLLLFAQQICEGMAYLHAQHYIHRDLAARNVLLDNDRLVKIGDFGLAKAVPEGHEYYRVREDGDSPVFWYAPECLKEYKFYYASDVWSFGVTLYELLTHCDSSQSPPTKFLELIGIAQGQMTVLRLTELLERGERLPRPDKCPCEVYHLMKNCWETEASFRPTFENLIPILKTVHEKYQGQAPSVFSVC

Series 1 — effect on: enzyme activity; action: inhibitor; concentration: 0.5 µM; baseline: control
Target: Protein kinase C delta type (PRKCD, Homo sapiens, UniProt Q05655)
UniProt Q05655, sequence (whole entry, looked up): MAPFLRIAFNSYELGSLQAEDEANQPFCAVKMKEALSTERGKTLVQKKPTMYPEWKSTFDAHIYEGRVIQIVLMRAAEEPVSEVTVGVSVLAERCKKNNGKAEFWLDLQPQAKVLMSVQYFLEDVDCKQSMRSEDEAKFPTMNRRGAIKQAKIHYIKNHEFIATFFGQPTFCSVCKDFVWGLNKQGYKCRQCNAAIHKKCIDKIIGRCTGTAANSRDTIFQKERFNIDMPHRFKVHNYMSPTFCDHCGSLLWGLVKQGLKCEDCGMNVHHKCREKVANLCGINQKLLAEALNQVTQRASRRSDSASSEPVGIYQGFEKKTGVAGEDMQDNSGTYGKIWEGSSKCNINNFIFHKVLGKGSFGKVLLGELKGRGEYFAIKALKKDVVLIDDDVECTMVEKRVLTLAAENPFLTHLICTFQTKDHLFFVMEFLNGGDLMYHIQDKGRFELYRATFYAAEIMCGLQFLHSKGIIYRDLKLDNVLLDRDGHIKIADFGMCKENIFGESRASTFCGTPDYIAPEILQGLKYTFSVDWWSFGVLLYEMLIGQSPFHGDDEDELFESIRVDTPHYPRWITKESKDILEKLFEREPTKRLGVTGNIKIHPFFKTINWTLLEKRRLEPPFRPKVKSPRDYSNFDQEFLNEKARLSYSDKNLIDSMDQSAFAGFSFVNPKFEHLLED
SMILES	remaining activity [%]
Nc1nc(Nc2ccc(S(N)(=O)=O)cc2)nn1C(=S)Nc1c(F)cccc1F	22.2
CC(C)(C)c1nc2c3cc[nH]c(=O)c3c3cc(F)ccc3c2[nH]1	43.6
COc1cc2c(Nc3ccc(Br)cc3F)ncnc2cc1OCC1CCN(C)CC1	103
O=C1NC(=O)/C(=C/c2ccc3c(c2)OC(F)(F)O3)S1	93.2
NC(=O)c1ccc(-c2nc(-c3ccc4c(c3)OCCO4)c(-c3ccccn3)[nH]2)cc1	107
O=c1c(-c2ccc(F)cc2)c(-c2ccncc2)[nH]n1-c1ccc(Cl)cc1	92.6
O=C(O)/C=C/c1cc(Br)c(Br)c(Br)c1Br	93.9
N#CC(c1ccnc(NCCc2cccnc2)n1)c1nc2ccccc2s1 (centres unmarked)	92.2
O=Nc1c(-c2c(O)[nH]c3ccccc23)[nH]c2ccccc12	95
Clc1ccc(Nc2nnc(Cc3ccncc3)c3ccccc23)cc1	97.4
CCN(CC)CCCCN1c2ccccc2Oc2ccc(Cl)cc21	95.4
FC(F)(F)c1ccc(/C=C/c2nc(COc3ccc(CCCCn4ccnn4)cc3)co2)cc1	99.6
CCCCc1c(-c2ccc(O)cc2)[nH]c2nccnc12	102
CNc1cc2c(Nc3cccc(Br)c3)ncnc2cn1	94.7
COc1cc2c(N3CCN(C(=O)Nc4ccc(OC(C)C)cc4)CC3)ncnc2cc1OCCCN1CCCCC1	101
C[C@@H](N)[C@H]1CC[C@H](C(=O)Nc2ccncc2)CC1	66.4
c1cc(-c2cnn3cc(-c4ccc(OCCN5CCCCC5)cc4)cnc23)ccn1	93.9
NC(=O)c1cccc(-c2cc(Nc3ccc(OC(F)(F)F)cc3)ncn2)c1	83.1

Series 2 — cell line: mouse MPNST tumor cells; technique: high-content nuclear imaging; refers to: cell number; concentration: 10 µM; time: 12 h; notes: mean of 2 replicates; baseline: plate mean; direction: higher = more cells
SMILES	nuclei count
COc1ccc(CC2c3cc(OC)c(OC)cc3CC[N+]2(C)CCC(=O)OCCCCCOC(=O)CC[N+]2(C)CCc3cc(OC)c(OC)cc3C2Cc2ccc(OC)c(OC)c2)cc1OC (centres unmarked)	-2.1 z-score
CC1(C)CCC[C@]2(C)[C@@H](C=O)C(C=O)=CC[C@@H]12	-1.14 z-score
CNCCC(Oc1ccc(C(F)(F)F)cc1)c1ccccc1 (centres unmarked)	-3.73 z-score
CCC1(c2ccccc2)NC(=O)N(C)C1=O (centres unmarked)	2.33 z-score and 1.48 z-score
CCC(=O)O[C@@H](O[P@](=O)(CCCCc1ccccc1)CC(=O)N1C[C@H](C2CCCCC2)C[C@H]1C(=O)O)C(C)C	0.8 z-score
COc1ccc(C2(O)CCC(N3CC[C@@H](NC(=O)CNC(=O)c4cccc(C(F)(F)F)c4)C3)CC2)cn1 (some centres unmarked)	3.19 z-score
CCOC(=O)NNc1nncc2ccccc12	2.91 z-score
Cc1nccc(-c2cn(Cc3ccccc3)c3cnccc23)n1	1.51 z-score
CO[C@@]1(NC(=O)C(C(=O)O)c2ccc(O)cc2)C(=O)N2C(C(=O)O)=C(CSc3nnnn3C)CO[C@@H]21 (some centres unmarked)	0.0413 z-score
NC(=O)c1noc([C@H](CCCC2CCCCC2)CC(=O)NO)n1	2.89 z-score
O=C(O)/C=C/c1ccc(Cn2ccnc2)cc1	2.17 z-score
COC(=O)Nc1nc2cc([S+]([O-])c3ccccc3)ccc2[nH]1 (centres unmarked)	0.569 z-score
O=C(O)C1CN(Cc2ccc(-c3nc4cc(Cc5ccccc5F)ccc4s3)c(F)c2)C1	0.515 z-score
CCOC(=O)c1ccc(OC(=O)CCCCCNC(=N)N)cc1	1.05 z-score
COc1ccc(Cn2ccc3ccc(C(=O)NO)cc32)cc1	1.17 z-score

Series 3 — effect on: cell-free assay; technique: competition with immobilised ligand; concentration: 1 µM
Compound: CN(C)CC#Cc1ccc(OCCCc2sc(N3CCc4cccc(C(=O)Nc5nc6ccccc6s5)c4C3)nc2C(=O)O)c(F)c1
target	remaining binding
Serine/threonine-protein kinase pim-3 (PIM3, Homo sapiens, UniProt Q86V86)	91%
Misshapen-like kinase 1 (MINK1, Homo sapiens, UniProt Q8N4C8)	88%
Phosphatidylinositol 4,5-bisphosphate 3-kinase catalytic subunit gamma isoform (PIK3CG, Homo sapiens, UniProt P48736)	100%
Non-receptor tyrosine-protein kinase TYK2, JH2 (TYK2, Homo sapiens, UniProt P29597)	75%
Ephrin type-A receptor 3 (EPHA3, Homo sapiens, UniProt P29320)	91%
Serine/threonine-protein kinase TAO2 (TAOK2, Homo sapiens, UniProt Q9UL54)	100%
Mitogen-activated protein kinase kinase kinase 10 (MAP3K10, Homo sapiens, UniProt Q02779)	100%
Cyclin-dependent kinase 16 (CDK16, Homo sapiens, UniProt Q00536)	100%
Serine/threonine-protein kinase Nek9 (NEK9, Homo sapiens, UniProt Q8TD19)	95%
Ribosomal protein S6 kinase alpha-5, N-terminal kinase domain (RPS6KA5, Homo sapiens, UniProt O75582)	90%
Serine/threonine-protein kinase MARK2 (MARK2, Homo sapiens, UniProt Q7KZI7)	100%
Serine/threonine-protein kinase Nek1 (NEK1, Homo sapiens, UniProt Q96PY6)	100%
Serine/threonine-protein kinase tousled-like 1 (TLK1, Homo sapiens, UniProt Q9UKI8)	86%
Mitogen-activated protein kinase 13 (MAPK13, Homo sapiens, UniProt O15264)	97%
Cyclin-dependent kinase 8 (CDK8, Homo sapiens, UniProt P49336)	69%
3-phosphoinositide-dependent protein kinase 1 (PDPK1, Homo sapiens, UniProt O15530)	100%
Cyclin-dependent kinase 4, with cyclin D1 (CDK4, Homo sapiens, UniProt P11802)	100%
Mitogen-activated protein kinase kinase kinase 13 (MAP3K13, Homo sapiens, UniProt O43283)	96%
TGF-beta receptor type-2 (TGFBR2, Homo sapiens, UniProt P37173)	83%
Fibroblast growth factor receptor 3 (FGFR3, Homo sapiens, UniProt P22607, G697C)	88%
5'-AMP-activated protein kinase catalytic subunit alpha-2 (PRKAA2, Homo sapiens, UniProt P54646)	99%
Activin receptor type-1 (ACVR1, Homo sapiens, UniProt Q04771)	100%
Serine/threonine-protein kinase TBK1 (TBK1, Homo sapiens, UniProt Q9UHD2)	100%

Series 4 — organism: Plasmodium berghei; action: inhibitor; cells: Huh-7; strain: liver stage; concentration: 10 µM; time: 24 h; baseline: untreated control
SMILES	infection rate
c1ccc2c(CC3=NCCN3)cccc2c1	96.5%
Oc1c(I)cc(I)c2cccnc12	92.2%
CC(COc1ccccc1)NC(C)C(O)c1ccc(O)cc1 (centres unmarked)	79%
COc1ccc2c(c1)c(CC(=O)O)c(C)n2C(=O)c1ccc(Cl)cc1	74.1%
OCCN1C[C@H](O)[C@@H](O)[C@H](O)[C@H]1CO	97.7%
CC(C)Cc1ccc(C(C)C(=O)O)cc1 (centres unmarked)	109%
C[C@H]1C[C@@H]2[C@H]([C@@H](O)C[C@@]3(C)[C@H]2CC[C@]3(O)C(=O)CO)[C@@]2(C)C=CC(=O)C=C12	95%
CCCCc1nc(Cl)c(CO)n1Cc1ccc(-c2ccccc2-c2nnn[nH]2)cc1	113%
NC(=O)c1ccc[n+]([C@@H]2O[C@H](COP(=O)([O-])OP(=O)(O)OC[C@H]3O[C@@H](n4cnc5c(N)ncnc54)[C@H](O)[C@@H]3O)[C@@H](O)[C@H]2O)c1	114%
CC(=O)N1CCN(c2ccc(OC[C@@H]3CO[C@@](Cn4ccnc4)(c4ccc(Cl)cc4Cl)O3)cc2)CC1 (racemic)	47.5%
C/C(=C\C(=O)OCCCCCCCCC(=O)O)C[C@@H]1OC[C@H](C[C@@H]2O[C@H]2[C@@H](C)[C@H](C)O)[C@@H](O)[C@H]1O	110%
CC1(C)O[C@@H]2C[C@H]3[C@@H]4C[C@H](F)C5=CC(=O)C=C[C@]5(C)[C@@]4(F)[C@@H](O)C[C@]3(C)[C@]2(C(=O)CO)O1	90.6%
Cc1cccc(Nc2ccccc2C(=O)O)c1C	99.2%
CC(=O)OCC(CCn1cnc2cnc(N)nc21)COC(C)=O	91.7%
OC[C@@H](O)[C@@H](O)[C@H](O)[C@H](O)CO	99.6%

A few entries again (series 2):
SMILES	nuclei count
CO[C@@]1(NC(=O)C(C(=O)O)c2ccc(O)cc2)C(=O)N2C(C(=O)O)=C(CSc3nnnn3C)CO[C@@H]21 (some centres unmarked)	0.0413 z-score
O=C(O)/C=C/c1ccc(Cn2ccnc2)cc1	2.17 z-score
CCC(=O)O[C@@H](O[P@](=O)(CCCCc1ccccc1)CC(=O)N1C[C@H](C2CCCCC2)C[C@H]1C(=O)O)C(C)C	0.8 z-score
CCOC(=O)NNc1nncc2ccccc12	2.91 z-score
COC(=O)Nc1nc2cc([S+]([O-])c3ccccc3)ccc2[nH]1 (centres unmarked)	0.569 z-score
COc1ccc(C2(O)CCC(N3CC[C@@H](NC(=O)CNC(=O)c4cccc(C(F)(F)F)c4)C3)CC2)cn1 (some centres unmarked)	3.19 z-score
